Experimental data gathered from unrelated publications.
Each line is one published result; not all experiments were run side by side. Values joined by “and” are separate records of one study, mostly repeats; a detail may differ. ± marks the error that the study gave.
Sequence of UniProt Q9UBE8 (whole entry, looked up): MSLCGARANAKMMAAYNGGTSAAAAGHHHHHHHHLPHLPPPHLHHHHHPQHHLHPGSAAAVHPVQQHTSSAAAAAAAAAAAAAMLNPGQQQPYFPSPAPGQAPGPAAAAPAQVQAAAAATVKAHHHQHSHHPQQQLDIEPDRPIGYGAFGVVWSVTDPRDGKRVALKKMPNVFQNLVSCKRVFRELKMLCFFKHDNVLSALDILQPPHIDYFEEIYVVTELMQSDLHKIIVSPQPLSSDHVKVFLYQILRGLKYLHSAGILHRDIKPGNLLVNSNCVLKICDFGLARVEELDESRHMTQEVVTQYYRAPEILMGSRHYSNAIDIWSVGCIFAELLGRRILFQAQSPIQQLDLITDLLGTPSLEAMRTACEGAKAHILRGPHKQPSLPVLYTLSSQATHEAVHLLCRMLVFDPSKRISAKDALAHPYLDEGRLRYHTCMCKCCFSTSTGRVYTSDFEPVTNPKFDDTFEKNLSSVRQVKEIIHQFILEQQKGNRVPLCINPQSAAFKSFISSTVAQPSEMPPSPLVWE

Compound	target or system	assay	test system	setting	how to read	measurement	value
COc1cc(CCC[P+](c2ccccc2)(c2ccccc2)c2ccccc2)c(OC)c2c1OCO2.[I-]	COLO 205	SRB	–	–	–	TGI	-5.47 log M
Cn1c(=O)ccc2ccc(F)c(CCNC[C@H]3CN(c4ncc5c(n4)NC(=O)CO5)C(=O)O3)c21	human DNA topoisomerase II	decatenation activity, inhibitor	–	–	–	IC50	> 120 µM
C[C@@H](O)[C@@H](CO)NC(=O)[C@@H](CCCNC(=N)N)NC(=O)[C@@H]1CCCN1C(=O)[C@@H]1CSSC[C@H](NC(=O)[C@H](Cc2ccccc2)NC(=O)CN2CCN(CC(=O)O)CCN(CC(=O)O)CCN(CC(=O)O)CC2)C(=O)N[C@@H](Cc2ccc(O)cc2)C(=O)N[C@@H](Cc2ccccc2)C(=O)N[C@@H](CCC(N)=O)C(=O)N[C@@H](CC(N)=O)C(=O)N1 [gallium-68 labelled]	–	–	healthy Wistar rat, brain	intravenous, 8 MBq, 120 min, individual animals	–	tissue uptake	0.01 %ID/g
C[C@H](C(=O)N[C@H]1COc2ccccc2[C@@H]1S(C)(=O)=O)c1ccc(F)cc1	KATP potassium channel, hamster	binding	–	10 µM, Eurofins selectivity panel	–	inhibition	5%
CC(C)(O)C(=O)Nc1ccc([N+](=O)[O-])c(C(F)(F)F)c1	androgen receptor pathway	antagonist	–	concentration not given	direction not given	AUC antagonist score	0.999
C[C@H]1CN(c2n[nH]c3nc(N[C@H]4CC[C@H](NS(=O)(=O)CCC(F)(F)F)CC4)ncc23)CCO1	NLK (Homo sapiens, UniProt Q9UBE8)	Kinobeads competition	HEK293, K562, placenta lysate	0.8 µM, unit not given	baseline: vehicle	remaining binding	0.5
CC[C@H](C)[C@H](NC(=O)[C@H](Cc1ccccc1)NC(=O)[C@H](CCC(=O)O)NC(=O)[C@H](CCCNC(=N)N)NC(=O)[C@H](C)NC(=O)[C@H](C)NC(=O)[C@H](CCC(N)=O)NC(=O)[C@H](CCC(=O)O)NC(=O)[C@H](CCC(=O)O)NC(=O)[C@H](CC(C)C)NC(=O)[C@H](Cc1ccc(O)cc1)NC(=O)[C@H](CO)NC(=O)[C@H](CO)NC(=O)[C@@H](NC(=O)[C@H](CC(=O)O)NC(=O)[C@H](CO)NC(=O)[C@@H](NC(=O)[C@H](Cc1ccccc1)NC(=O)[C@@H](NC(=O)CNC(=O)[C@H](CCC(=O)O)NC(=O)[C@H](C)NC(=O)CCc1c[nH]cn1)[C@@H](C)O)[C@@H](C)O)C(C)C)C(=O)N[C@@H](C)C(=O)N[C@@H](Cc1c[nH]c2ccccc12)C(=O)N[C@@H](CC(C)C)C(=O)N[C@H](C(=O)N[C@@H](CCCNC(=N)N)C(=O)NCC(=O)N[C@@H](CCCNC(=N)N)C(=O)N[C@@H](CCCCNC(=O)COCCOCCNC(=O)COCCOCCNC(=O)CC[C@H](NC(=O)CCCCCCCCCCCCCCCCC(=O)O)C(=O)O)C(=O)NCC(=O)NCC(=O)N[C@@H](CO)C(=O)N[C@@H](CCCCNc1c(NCCCCCN(O)C(=O)CCC(=O)NCCCCCN(O)C(=O)CCC(=O)NCCCCCN(O)C(C)=O)c(=O)c1=O)C(=O)O)C(C)C [zirconium-89 labelled]	–	ex vivo gamma counting	rat, kidney	subcutaneous, 3 nmol/kg, 24 h, added: [89Zr]-labelled peptide	–	tissue uptake	5.82 %ID/g
O=C1NC(=O)[C@](CNC(=O)c2cnn(-c3ccccc3)n2)(C2CC2)N1	kallikrein	–	–	concentration not given	–	activity	inactive
COc1cc(C(=O)N2CC[C@@H](O)[C@@H](N)C2)cc2nc(-c3cc4ccccc4n3CC3CC3)n(C)c12	human PAD4	inhibitor	neutrophils from hyperglycemic patients	10 µM, 72 h	baseline: untreated	L-arginine level	~1.1 fold
COc1cc(Nc2ncc(F)c(Nc3ccc4c(n3)NC(=O)C(C)(C)O4)n2)cc(OC)c1OC	Proteasome	–	–	–	–	IC50	> 10 µM
NC(=O)c1nc(F)c[nH]c1=O	human cytochrome c oxidase subunit I	measured: cytochrome c oxidase subunit I	HepG2	120 h	–	IC50	> 400 µM
c1ccc(C(NCCNC(c2ccccc2)c2ccccc2)c2ccccc2)cc1	NMDA receptor, rat, Agonism site	binding	–	10 µM, Eurofins selectivity panel	–	inhibition	8%
COc1cc2c(Oc3ccc4[nH]c(C)cc4c3F)ccnc2cc1OCC1(N)CC1	–	–	paediatric recurrent refractory sarcoma	12 mg	–	grade 3 abdominal pain	9.1%
CC(COc1ccc2c(c1)C(=O)N(CCOC(=O)NCc1cccc(-c3c[nH]cn3)c1)C2C)c1ccccc1 (stereo not shown)	human transthyretin WIL* T46L/F49Y, fluorescein-labelled	protease sensitivity	–	–	–	maximum proteolysis	~80%
CC(C)CC(=O)OC[C@H]1O[C@@](C#N)(c2ccc3c(N)ncnn23)[C@H](O)[C@@H]1O	kainate glutamate receptor rat	radioligand binding	–	20 µM	–	inhibition	0%
O=C(Nc1cccnn1)N1CCN([C@@H]2CCOc3cc(C(F)(F)F)ccc32)CC1	AMPA	Cerep BioPrint	–	20 µM	–	inhibition	-3%
CC[C@H](C)[C@@H]1NC(=O)[C@@H]2CCCN2C(=O)[C@H](CC(C)C)NC(=O)[C@H](CC(C)C)NC(=O)CNC(=O)[C@@H](NC(=O)[C@@H](NC(=O)[C@H](CC(=O)O)NC(=O)CNC(=O)[C@@H](NC(=O)[C@H](C)NC(=O)CNC(=O)[C@H](CCCCN)NC(=O)[C@H](CC(C)C)NC(=O)[C@H](CC(C)C)NC(=O)[C@H](CCCCN)NC(=O)CNC(=O)[C@@H](NC(=O)[C@@H](N)CC(C)C)C(C)C)C(C)C)C(C)C)CSSC[C@@H](C(=O)O)NC1=O	–	RNA-seq, measured: Sp140	mouse, traumatic brain injury model, frontal cortex and hippocampus	dose not given	baseline: TBI alone	log2 fold change	-3.17
CC[C@H]1CN2CC[C@H]1C[C@@H]2[C@@H](O)c1ccnc2ccc(OC)cc12	Nedd8-cullin1 interaction	neddylation, AlphaScreen	–	100 µM	–	inhibition	-33.2%
COc1c(CCC[P+](c2ccccc2)(c2ccccc2)c2ccccc2)cc2c(c1OC)OCO2.[I-]	ACHN	SRB	–	–	–	TGI	-4.53 log M
C[N+](C)(C)CCOS(=O)(=O)[O-]	SAR11_0797 Candidatus Pelagibacter ubique	differential scanning fluorimetry	–	concentration not given, unit not given	higher = stronger binding	ΔTm	7.47
Cn1cc(C2=C(c3cn(C4CCN(Cc5ccccn5)CC4)c4ccccc34)C(=O)NC2=O)c2ccccc21	NLRP3 inflammasome (mouse)	–	mouse BMDM	10 µM	–	inhibition	18.5%
Cn1c(=O)ccc2ccc(F)c(CCNC[C@@H]3CN(c4cnc5c(n4)NC(=O)CO5)C(=O)O3)c21	human DNA topoisomerase II	decatenation activity, inhibitor	–	–	–	IC50	> 120 µM
C[N+](C)(C)CCOP(=O)(O)O	SAR11_0797 Candidatus Pelagibacter ubique	differential scanning fluorimetry	–	concentration not given, unit not given	higher = stronger binding	ΔTm	6.71 and 2.79
O=C(N[C@H](CO)[C@H](O)c1ccc([N+](=O)[O-])cc1)C(Cl)Cl	human cytochrome c oxidase subunit I	measured: cytochrome c oxidase subunit I	HepG2	120 h	–	IC50	0.97 ± 0.06 µM
Nc1ncnc2c1ncn2[C@@H]1O[C@@H]2COP(=O)(O)O[C@H]3[C@@H](O)[C@H](n4cnc5c(=O)[nH]cnc54)O[C@@H]3COP(=O)(O)O[C@H]2[C@H]1O	West Nile virus	RNA sequencing Reactome analysis, measured: Collagen formation (R-HSA-1474290)	HFF-1	concentration not given, downregulated pathways, added: West Nile virus infection	baseline: WNV-infected without compound	fold enrichment	6.35
